Published values pooled from the literature.
Parts stem from different laboratories: compare values within a part only. Several values in a cell are separate wells, animals, samples, runs or records.
UniProt P29597, sequence (whole entry, looked up): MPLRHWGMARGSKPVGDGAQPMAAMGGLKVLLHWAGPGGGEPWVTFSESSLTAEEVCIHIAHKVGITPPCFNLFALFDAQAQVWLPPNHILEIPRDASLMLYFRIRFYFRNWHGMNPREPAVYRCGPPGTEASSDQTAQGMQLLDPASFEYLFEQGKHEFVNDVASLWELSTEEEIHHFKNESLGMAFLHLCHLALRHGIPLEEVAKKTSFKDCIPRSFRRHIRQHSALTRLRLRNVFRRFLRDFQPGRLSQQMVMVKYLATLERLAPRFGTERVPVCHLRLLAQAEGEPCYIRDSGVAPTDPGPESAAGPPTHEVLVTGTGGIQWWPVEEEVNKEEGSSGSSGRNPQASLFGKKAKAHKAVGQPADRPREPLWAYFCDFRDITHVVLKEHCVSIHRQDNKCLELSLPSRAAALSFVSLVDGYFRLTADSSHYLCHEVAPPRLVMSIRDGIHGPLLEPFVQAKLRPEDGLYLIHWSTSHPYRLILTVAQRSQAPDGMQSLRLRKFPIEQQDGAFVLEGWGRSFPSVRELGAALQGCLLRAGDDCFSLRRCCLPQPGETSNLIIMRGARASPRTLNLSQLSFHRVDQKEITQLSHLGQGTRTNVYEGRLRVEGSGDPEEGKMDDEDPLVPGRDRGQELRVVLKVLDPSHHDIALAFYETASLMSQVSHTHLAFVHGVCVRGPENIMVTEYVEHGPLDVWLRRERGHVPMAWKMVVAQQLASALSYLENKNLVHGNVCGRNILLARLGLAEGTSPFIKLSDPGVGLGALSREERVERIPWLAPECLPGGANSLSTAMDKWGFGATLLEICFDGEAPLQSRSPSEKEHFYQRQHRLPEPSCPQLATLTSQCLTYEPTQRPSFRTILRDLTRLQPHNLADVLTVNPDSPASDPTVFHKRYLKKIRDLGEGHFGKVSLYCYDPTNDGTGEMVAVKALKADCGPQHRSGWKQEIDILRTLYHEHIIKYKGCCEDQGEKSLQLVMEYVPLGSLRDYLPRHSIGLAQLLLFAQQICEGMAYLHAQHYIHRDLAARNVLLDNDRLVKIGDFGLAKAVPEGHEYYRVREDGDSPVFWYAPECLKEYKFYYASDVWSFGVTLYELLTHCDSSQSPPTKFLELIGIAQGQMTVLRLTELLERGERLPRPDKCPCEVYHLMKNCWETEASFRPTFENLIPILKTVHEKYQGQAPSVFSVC
UniProt P07947, sequence (whole entry, looked up): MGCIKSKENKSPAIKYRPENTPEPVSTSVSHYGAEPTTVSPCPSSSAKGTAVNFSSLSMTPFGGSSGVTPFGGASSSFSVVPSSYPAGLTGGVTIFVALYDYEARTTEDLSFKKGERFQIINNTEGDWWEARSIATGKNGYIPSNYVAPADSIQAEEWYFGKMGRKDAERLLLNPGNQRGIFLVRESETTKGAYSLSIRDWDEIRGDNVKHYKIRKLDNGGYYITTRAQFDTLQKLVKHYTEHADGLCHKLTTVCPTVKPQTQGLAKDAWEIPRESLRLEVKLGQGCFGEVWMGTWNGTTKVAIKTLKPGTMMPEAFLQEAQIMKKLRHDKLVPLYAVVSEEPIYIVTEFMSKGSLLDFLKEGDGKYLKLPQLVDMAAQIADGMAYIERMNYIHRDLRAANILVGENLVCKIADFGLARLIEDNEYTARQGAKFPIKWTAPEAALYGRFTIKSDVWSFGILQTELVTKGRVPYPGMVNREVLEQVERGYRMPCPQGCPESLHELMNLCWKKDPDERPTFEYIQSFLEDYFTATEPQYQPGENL

Study 1
Target: DNA polymerase theta, ATPase domain (POLQ, Homo sapiens, UniProt O75417)
UniProt O75417, sequence (whole entry, unmodified, looked up): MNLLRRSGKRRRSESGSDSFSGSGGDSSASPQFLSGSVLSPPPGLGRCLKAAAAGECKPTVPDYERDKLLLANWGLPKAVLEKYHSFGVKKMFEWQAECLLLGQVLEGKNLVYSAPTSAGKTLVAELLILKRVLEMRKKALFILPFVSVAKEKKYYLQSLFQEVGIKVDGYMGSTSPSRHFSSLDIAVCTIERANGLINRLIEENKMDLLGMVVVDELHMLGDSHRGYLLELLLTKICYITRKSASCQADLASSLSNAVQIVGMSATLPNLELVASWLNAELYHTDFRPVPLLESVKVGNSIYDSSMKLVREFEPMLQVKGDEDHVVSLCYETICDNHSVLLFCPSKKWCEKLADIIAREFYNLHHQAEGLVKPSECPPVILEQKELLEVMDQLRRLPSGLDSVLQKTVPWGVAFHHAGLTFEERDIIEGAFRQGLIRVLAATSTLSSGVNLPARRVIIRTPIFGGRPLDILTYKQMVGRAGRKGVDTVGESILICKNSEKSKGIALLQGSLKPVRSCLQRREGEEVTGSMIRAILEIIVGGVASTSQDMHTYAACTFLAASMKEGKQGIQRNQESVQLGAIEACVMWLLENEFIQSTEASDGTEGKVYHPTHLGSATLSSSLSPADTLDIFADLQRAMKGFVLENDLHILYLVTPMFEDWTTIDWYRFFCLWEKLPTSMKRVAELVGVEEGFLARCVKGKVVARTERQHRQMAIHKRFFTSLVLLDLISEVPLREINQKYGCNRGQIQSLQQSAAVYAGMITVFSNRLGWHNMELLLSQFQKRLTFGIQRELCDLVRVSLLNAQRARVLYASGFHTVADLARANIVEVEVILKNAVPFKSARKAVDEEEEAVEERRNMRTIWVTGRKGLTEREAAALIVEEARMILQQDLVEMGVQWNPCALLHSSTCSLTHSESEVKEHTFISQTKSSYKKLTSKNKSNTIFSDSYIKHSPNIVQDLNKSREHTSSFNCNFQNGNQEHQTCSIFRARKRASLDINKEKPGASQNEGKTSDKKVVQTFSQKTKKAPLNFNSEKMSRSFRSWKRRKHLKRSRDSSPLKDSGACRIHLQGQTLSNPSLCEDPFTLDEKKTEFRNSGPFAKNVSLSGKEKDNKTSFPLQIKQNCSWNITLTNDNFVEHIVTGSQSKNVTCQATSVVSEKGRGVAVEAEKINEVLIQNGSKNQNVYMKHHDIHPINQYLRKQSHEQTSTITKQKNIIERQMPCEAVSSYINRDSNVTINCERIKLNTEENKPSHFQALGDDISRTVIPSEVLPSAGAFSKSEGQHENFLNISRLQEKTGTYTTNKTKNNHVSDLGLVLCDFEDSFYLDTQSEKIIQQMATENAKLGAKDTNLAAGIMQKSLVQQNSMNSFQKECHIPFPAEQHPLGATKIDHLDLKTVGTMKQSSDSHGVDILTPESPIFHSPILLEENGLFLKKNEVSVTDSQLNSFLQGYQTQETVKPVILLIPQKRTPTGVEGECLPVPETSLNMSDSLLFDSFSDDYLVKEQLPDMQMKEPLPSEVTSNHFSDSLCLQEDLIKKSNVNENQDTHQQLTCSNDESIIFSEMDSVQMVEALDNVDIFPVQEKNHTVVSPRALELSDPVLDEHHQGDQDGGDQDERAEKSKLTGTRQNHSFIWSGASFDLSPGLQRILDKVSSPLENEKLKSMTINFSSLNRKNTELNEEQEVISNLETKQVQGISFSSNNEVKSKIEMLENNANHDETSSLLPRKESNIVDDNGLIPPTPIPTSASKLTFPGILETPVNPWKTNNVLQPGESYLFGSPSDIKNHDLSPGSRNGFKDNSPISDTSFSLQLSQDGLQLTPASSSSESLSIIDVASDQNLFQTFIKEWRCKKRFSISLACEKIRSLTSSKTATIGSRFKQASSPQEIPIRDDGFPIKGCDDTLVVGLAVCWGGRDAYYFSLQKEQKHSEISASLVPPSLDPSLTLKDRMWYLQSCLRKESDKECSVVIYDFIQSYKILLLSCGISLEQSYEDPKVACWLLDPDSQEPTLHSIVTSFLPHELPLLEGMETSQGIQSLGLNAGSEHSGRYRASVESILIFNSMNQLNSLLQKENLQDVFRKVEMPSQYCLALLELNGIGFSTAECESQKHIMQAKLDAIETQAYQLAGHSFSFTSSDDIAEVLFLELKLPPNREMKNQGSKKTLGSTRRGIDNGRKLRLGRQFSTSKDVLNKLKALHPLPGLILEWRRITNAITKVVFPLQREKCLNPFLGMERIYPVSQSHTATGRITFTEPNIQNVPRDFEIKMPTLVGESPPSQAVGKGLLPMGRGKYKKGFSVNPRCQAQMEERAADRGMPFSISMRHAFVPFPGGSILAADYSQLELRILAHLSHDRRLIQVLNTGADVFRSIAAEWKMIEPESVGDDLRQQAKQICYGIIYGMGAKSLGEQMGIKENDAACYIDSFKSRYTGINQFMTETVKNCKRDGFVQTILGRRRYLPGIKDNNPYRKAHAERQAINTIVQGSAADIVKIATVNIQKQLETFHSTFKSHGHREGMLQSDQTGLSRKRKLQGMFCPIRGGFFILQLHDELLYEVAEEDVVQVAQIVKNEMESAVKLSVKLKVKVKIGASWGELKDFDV
Observed: enzyme activity
Action: inhibitor
Concentration: 77 µM
Baseline: untreated
Measurement: remaining activity
Cc1cc(-c2ccc(CC(=O)Nc3ccc(-c4cccnc4)cc3)cc2)ccn1: 107%
CC(=O)[C@H]1CC[C@H]2[C@@H]3CCC4=CC(=O)CC[C@]4(C)[C@H]3CC[C@]12C: 102% and 97.1%
COc1c(N2C[C@@H]3CCCN[C@@H]3C2)c(F)cc2c(=O)c(C(=O)O)cn(C3CC3)c12: 99%
C1CCc2nnnn2CC1: 98.3% and 101%
Nc1ccccc1S(N)(=O)=O: 102%
CC(C)(C)NC[C@@H](O)COc1cccc2c1CCCC2=O: 104%
CC(=O)N(CC(C)C(=O)O)c1c(I)cc(I)c(N)c1I (stereo not drawn): 304%
COC(=O)CCc1ccc(OCC(O)CNC(C)C)cc1 (stereo not drawn): 103%
CCCCCCCCCCCC1=C(O)C(=O)C=C(O)C1=O: 92.9%
CC(=O)OC(C)C[N+](C)(C)C (stereo not drawn): 101%

Study 2
Compound: Cn1nc(C(=O)NCc2ccc(C(=O)O)cc2)cc1-c1ccc2[nH]ccc2c1
Concentration: 0.1 µM
Measurement: remaining binding
BTK (Homo sapiens, UniProt Q06187); cell-free assay, competition with immobilised ligand: 77%
TNK1 (Homo sapiens, UniProt Q13470); cell-free assay, competition with immobilised ligand: 100%
YES1 (Homo sapiens, UniProt P07947); cell-free assay, competition with immobilised ligand: 84%
CDK19 (Homo sapiens, UniProt Q9BWU1); competition binding: 100%
SBK1 (Homo sapiens, UniProt Q52WX2); cell-free assay, competition with immobilised ligand: 77%
LYN (Homo sapiens, UniProt P07948); cell-free assay, competition with immobilised ligand: 100%
PIK3CA (Homo sapiens, UniProt P42336, M1043I); cell-free assay, competition with immobilised ligand: 85%
PAK1 (Homo sapiens, UniProt Q13153); cell-free assay, competition with immobilised ligand: 86%
IRAK4 (Homo sapiens, UniProt Q9NWZ3); cell-free assay, competition with immobilised ligand: 71%
Non-receptor tyrosine-protein kinase TYK2, JH1 (TYK2, Homo sapiens, UniProt P29597); cell-free assay, competition with immobilised ligand: 82%
PI4KB (Homo sapiens, UniProt Q9UBF8); cell-free assay, competition with immobilised ligand: 70%
Ribosomal protein S6 kinase alpha-2, N-terminal kinase domain (RPS6KA2, Homo sapiens, UniProt Q15349); cell-free assay, competition with immobilised ligand: 100%
MAP3K9 (Homo sapiens, UniProt P80192); cell-free assay, competition with immobilised ligand: 100%
PIK3C2B (Homo sapiens, UniProt O00750); cell-free assay, competition with immobilised ligand: 78%

Study 3
Target: Eukaryotic initiation factor 4A-III (Homo sapiens, UniProt P38919)
UniProt P38919, sequence (whole entry, looked up): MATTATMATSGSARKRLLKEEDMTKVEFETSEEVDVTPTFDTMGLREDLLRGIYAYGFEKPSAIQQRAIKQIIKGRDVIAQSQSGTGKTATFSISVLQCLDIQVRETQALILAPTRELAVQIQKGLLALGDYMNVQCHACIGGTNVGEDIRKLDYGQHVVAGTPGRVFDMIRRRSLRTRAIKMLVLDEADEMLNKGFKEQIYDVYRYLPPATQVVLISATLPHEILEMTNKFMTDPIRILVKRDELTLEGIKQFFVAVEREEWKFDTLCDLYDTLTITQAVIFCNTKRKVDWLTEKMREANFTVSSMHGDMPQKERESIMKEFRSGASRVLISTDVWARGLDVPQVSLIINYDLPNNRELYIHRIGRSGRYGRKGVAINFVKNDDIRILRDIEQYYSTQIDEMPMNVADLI
Observed: RNA clamping
Technique: fluorescence polarization
Concentration: concentration not given
Added: FAM-labelled poly r(AG)8 RNA
Measurement: fluorescence polarization change
COCCN[C@@]12C(=O)[C@H](C(=O)N(C)C)[C@@H](c3ccccc3)[C@]1(c1ccc(OC)cc1)Oc1cc(OC)cc(OC)c12: 1.9 mP
COC(=O)[C@H]1[C@@H](O)[C@@]2(O)c3c(OC)cccc3N(C)[C@@]2(c2ccc(Br)cc2)[C@@H]1c1ccccc1: -4.7 mP
COC(=O)[C@@H]1[C@@H](c2ccccc2)[C@]2(c3ccc(OC)cc3)Oc3cc(OC)cc(OC)c3[C@@]1(O)C2(O)O: -0.5 mP
COc1ccc([C@@]23Oc4cc(OC)cc(OC)c4[C@]2(O)[C@H](O)[C@H](C(=O)c2cc(C)c(C)o2)[C@H]3c2ccccc2)cc1: 11.5 mP
COC(=O)[C@H]1C(=O)[C@@]2(NCCN(C)C)c3c(OC)cc(OC)cc3O[C@@]2(c2ccc(OC)cc2)[C@@H]1c1ccccc1: 4.5 mP
COC(=O)[C@@H]1[C@@H](c2ccccc2)[C@]2(c3ccc(OC)cc3)Oc3cc(OC)cc(OC)c3[C@@]23OC(c2cccc(OC)c2)=N[C@@]13O: 0.4 mP
COc1ccc([C@@]23Oc4cc(OS(=O)(=O)c5ccc(C)cc5)cc(OC)c4[C@]2(O)c2nc(-c4ccccc4)n(Cc4ccccc4)c(=O)c2[C@H]3c2ccccc2)cc1: 0.8 mP
COc1ccc([C@@]23Oc4cc(OC)cc(OC)c4[C@]2(O)C=C(C(=O)c2ccco2)[C@H]3c2ccccc2)cc1: 27.8 mP

Study 4
Target: Non-receptor tyrosine-protein kinase TYK2 (TYK2, Homo sapiens, UniProt P29597)
Observed: enzyme activity
Action: inhibitor
Concentration: 0.5 µM
Baseline: control
Measurement: remaining activity
Cn1cnc2cc3c(Nc4cccc(Br)c4)ncnc3cc21: 112%
O=C1NC(=O)/C(=C/c2ccc3nccnc3c2)S1: 85.2%
Nc1[nH]nc2nnc(-c3c(-c4ccccc4)nn4ccccc34)cc12: 104%
COc1ccc(Cl)cc1NC(=O)Nc1cc(C)nc2ccccc12: 99.7%
CC(C)[C@H](CO)Nc1nc(Nc2cccc(Cl)c2)c2ncn(C(C)C)c2n1: 95.2%
COc1cc2ncnc(N3CCN(C(=O)Nc4ccc(Oc5ccccc5)cc4)CC3)c2cc1OC: 83.1%
Cc1ccc(NC(=O)c2ccc(CN3CCN(C)CC3)cc2)cc1Nc1nccc(-c2cccnc2)n1: 99.9%
COc1cc2ncnc(Nc3ccc(OCc4ccccc4)cc3)c2cc1OC: 103%
CN(C)CCCn1cc(C2=C(c3c[nH]c4ccccc34)C(=O)NC2=O)c2ccccc21: 79.3%
Cn1cc(/C=C2\C(=O)Nc3ccc(S(N)(=O)=O)cc32)c2ccccc21: 35%
CCOc1cc2ncnc(Nc3cccc(Br)c3)c2cc1OCC: 107%
COc1cc2ncc(-c3ccccc3)nc2cc1OC: 93.9%
O=c1cc(N2CCOCC2)oc2c1ccc1ccccc12: 111%
CCC(=O)Nc1ccc2ncnc(Nc3cccc(Br)c3)c2c1: 90.2%
CS(=O)(=O)CCNCc1ccc(-c2ccc3ncnc(Nc4ccc(OCc5cccc(F)c5)c(Cl)c4)c3c2)o1: 95.5%
Cc1nc(Nc2ncc(C(=O)Nc3c(C)cccc3Cl)s2)cc(N2CCN(CCO)CC2)n1: 95.6%
C[S+]([O-])c1ccc(-c2nc(-c3ccncc3)c(-c3ccc(F)cc3)[nH]2)cc1 (stereo not drawn): 102%
CC(=O)O/N=C1/C(c2c(O)[nH]c3cc(Br)ccc23)=Nc2ccccc21: 81.6%
CC(C)c1nn(-c2c(Cl)cccc2Cl)c2nc(Cc3ccc(OCCO)cc3)[nH]c(=O)c12: 111%
COc1ccc(-c2cnc3c(-c4ccsc4)cnn3c2)cc1: 86.1%
CCN1/C(=C/C(C)=O)Sc2ccc(OC)cc21: 113%
O=C(Nc1ccc(Cl)cc1)c1ccccc1NCc1ccncc1: 92.1%
